Measured values pooled from the literature.
A part holds a random share of what one study measured. Changes are numbered by the printed parent chain.

Sample 1
Target: Phosphate system positive regulatory protein PHO4, full length, GST-tagged (PHO4, Saccharomyces cerevisiae, UniProt P07270, residues 1-312)
Technique: competition protein-binding microarray
Molecule type: double-stranded DNA, one strand shown
Sample: in vitro
Tested at: 2 µM
Setting: whole 60-bp probe, lowest competitor level
Added: Cbf1 competitor, 0.05 µM
Direction: higher = stronger binding
All sequences stand within: … GTCTTGATTCGCTTGACGCTGCTG
Target sequence (chain): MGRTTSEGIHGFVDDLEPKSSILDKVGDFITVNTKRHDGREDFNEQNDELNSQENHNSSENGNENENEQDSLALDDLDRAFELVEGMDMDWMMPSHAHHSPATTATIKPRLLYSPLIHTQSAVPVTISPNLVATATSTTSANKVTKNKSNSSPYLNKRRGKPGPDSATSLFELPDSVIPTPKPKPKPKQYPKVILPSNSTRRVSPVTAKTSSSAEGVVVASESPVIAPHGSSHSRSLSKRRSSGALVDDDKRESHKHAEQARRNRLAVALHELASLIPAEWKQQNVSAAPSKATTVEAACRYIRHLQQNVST
Oligonucleotide	fluorescence intensity [a.u.]
TAACATTCTGTAGTTCATGTGTACTAAAAAAAAAAA	4340
CCTGCTGAGCTCAGCCATGCGTCTTACTGCCTGGTG	5150
AGCAGAAGAAAACATACCGTGCGATATAGTACCTGG	6120
ACATAGTCTGATCGGCACGTGAGAAAGTGCCATACC	14000
GTACGTTATTGCTGGCACGATCCTGTCGCTACGGCC	9560
CTAACGAAGGTTTCTCACGTGTTTTACAAGCCAAGT	14400
CCCATCCGGTAGGTGCATGTGTGCCTCTGCAGGACG	9310
CGGGGTTAAGTTTGATACGTGGGTGGCTTGCAGCAG	7210

Sample 2
Target: FOSL2, bZIP domain (human)
Technique: DHFR protein complementation
Sample: yeast
Setting: single substitutions, most at no-binding floor
Baseline: wild-type JUN-FOS pair
Direction: higher = stronger binding
Starting sequence: JUN, bZIP domain (human); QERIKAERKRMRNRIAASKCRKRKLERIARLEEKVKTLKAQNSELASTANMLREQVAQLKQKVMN; partner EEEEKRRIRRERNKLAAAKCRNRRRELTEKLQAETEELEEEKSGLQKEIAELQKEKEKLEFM
Change	binding fitness
N42I	0.00627 natural log
E32I	-0.2 natural log
K36V	0.0831 natural log
Q55Y	-0.114 natural log
R53M	-0.422 natural log
A46S	0.0279 natural log
S47A	0.135 natural log
A40V	0.0503 natural log

Sample 3
Target: Runt-related transcription factor 1, full length (RUNX1, Homo sapiens, UniProt Q01196-8, residues 1-480)
Technique: protein-binding microarray
Molecule type: hairpin DNA
Sample: in vitro
Tested at: not given
Setting: whole hairpin DNA, median over replicate spots
Baseline: not given
Direction: higher = stronger binding
Oligonucleotide	median fluorescence [a.u.]
GAGGCCTGCGGCGGTTGGCCTCCTGGCCAACCGCCGCAGGCCTCACACTC (5mC at 9 35)	3000
GAGGCCCGTCGCGGTTGGCCTCCTGGCCAACCGCGACGGGCCTCACACTC (5mC at 37)	2720
GAGGCCTCGTGCGGTTGGCCTCCTGGCCAACCGCACGAGGCCTCACACTC (5mC at 8)	2920
GAGGCCTGTCGTGGTTGGCCTCCTGGCCAACCACGACAGGCCTCACACTC (5mC at 34)	2030
GAGGCCTGTCGCGGTTGGCCTCCTGGCCAACCGCGACAGGCCTCACACTC (5mC at 32 34)	1770
CTCAGCTCTGTGGGCTGGACTCCTGTCCAGCCCACAGAGCTGAGACACTC (5mC at 6)	1910
GAGGCCTGTTGCCGTTGGCCTCCTGGCCAACGGCAACAGGCCTCACACTC	1640
GAGGCCTGTTGCGGTTCGCCTCCTGGCGAACCGCAACAGGCCTCACACTC	4070

Single results of other studies
Starting sequence: viral docking peptide; KGVKRKLFAEDSS; partner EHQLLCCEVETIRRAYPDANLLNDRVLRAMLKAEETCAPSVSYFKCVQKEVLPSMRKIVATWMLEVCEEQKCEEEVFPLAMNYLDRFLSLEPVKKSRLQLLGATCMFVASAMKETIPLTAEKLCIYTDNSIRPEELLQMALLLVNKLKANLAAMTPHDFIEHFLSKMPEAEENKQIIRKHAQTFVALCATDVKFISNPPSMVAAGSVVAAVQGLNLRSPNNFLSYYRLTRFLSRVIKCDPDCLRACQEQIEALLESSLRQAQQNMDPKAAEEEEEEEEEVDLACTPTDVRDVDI
Change	target	assay	test system	setting	scale	quantity	result
S12H	CCND1, cyclin fold, Cln2 fusion (human)	yeast growth competition, sequencing	yeast	strong parent motif	baseline: not given, higher = stronger binding	normalised enrichment score	1
